Measurements from different studies.
Several values in a cell are separate wells, animals, samples, runs or records. ± marks the error that the study gave.

NC1CCN(C(=O)Oc2ccc(C3CCCC4(C3)OOC3(O4)C4CC5CC(C4)CC3C5)cc2)CC1 (racemic) — Cmax (male ICR mice, plasma; oral, 50 mg/kg): 565 ng/mL
N=C(N)NCCC[C@H](NC(=O)[C@H](CCCNC(=N)N)NC(=O)[C@H](CCCNC(=N)N)NC(=O)[C@H](CCC(N)=O)NC(=O)[C@H](CCCNC(=N)N)NC(=O)[C@H](CCCNC(=N)N)NC(=O)[C@H](CCCCN)NC(=O)[C@H](CCCCN)NC(=O)[C@H](CCCNC(=N)N)NC(=O)CNC(=O)[C@H](Cc1ccc(O)cc1)NC(=O)[C@H](Cc1ccccc1)NC(=O)[C@H](Cc1ccccc1)NC(=O)[C@H](Cc1ccccc1)NC(=O)OCC1c2ccccc2-c2ccccc21)C(=O)O — zeta potential (10 mM PBS; 64 µM, overnight, pH 7.4): 23.7 mV
CC(=O)NCCCC[C@@H]1NC(=O)[C@H](Cc2c[nH]c3c(C)cccc23)NC(=O)[C@H]([C@@H](C)O)NC(=O)[C@H](CC(N)=O)NC(=O)[C@@H](NC(C)=O)C(C)(C)SSC(C)(C)[C@@H](C(=O)N[C@@H](Cc2ccc(OCCN)cc2)C(=O)N[C@@H](Cc2ccc3ccccc3c2)C(=O)NC2(C(=O)N[C@@H](CCC(=O)O)C(=O)N[C@@H](CC(N)=O)C(=O)N[C@@H](Cc3cccnc3)C(=O)N(C)CC(N)=O)CCOCC2)NC1=O — share of drug-related material (metabolic profiling; Sprague Dawley rat, plasma; oral, 300 mg/kg, 0 to 24 h): > 95%
CC(C)[C@@H]1NC(=O)CNC(=O)[C@H](CC(N)=O)NC(=O)[C@H](CCCNC(=N)N)NC(=O)[C@H](Cc2ccc(O)cc2)NC(=O)[C@H](C(C)C)NC(=O)[C@@H](NC(=O)[C@@H](NC(=O)[C@H](CC(N)=O)NC(=O)[C@H](Cc2c[nH]c3ccccc23)NC(=O)[C@H](C)NC(=O)[C@H](Cc2ccccc2)NC(=O)CNC(=O)[C@H](CCCCN)NC(=O)[C@H](Cc2ccccc2)NC(=O)[C@H](Cc2ccccc2)NC(=O)[C@H](CCCCN)NC(=O)OCC2c3ccccc3-c3ccccc32)C(C)C)CSSC[C@@H](C(=O)N[C@@H](Cc2c[nH]cn2)C(=O)N[C@@H](CCCNC(=N)N)C(=O)N[C@@H](CCCNC(=N)N)C(=O)N[C@@H](C)C(=O)N[C@@H](CC(N)=O)C(N)=O)NC(=O)[C@H](C(C)C)NC(=O)[C@H](CCCNC(=N)N)NC1=O — plateletcrit (ICR mice, blood; intraductal mammary, 10 mg/kg, day 5): 0.03%
CCc1nnc(-c2c(OC)cc(-c3cnc4cc(-c5cnn(C)c5)ccn34)cc2OC)o1 — microsomal CLint (metabolic stability; rat, liver microsomes): < 9.6 µL/min/mg
CC(=O)N(Cc1ccccc1)[C@@H](C)C(=O)N(C)[C@@H](C)C(=O)N(Cc1c[nH]c2cc(Cl)ccc12)[C@@H](C)C(=O)N(C)[C@@H](C)C(=O)N(CCC(C)(C)C)[C@@H](C)C(N)=O — Papp (PAMPA; 10 µM, 4 h, pH 7.4): 0.14 ×10⁻⁶ cm/s
CSCC[C@H](NC(=O)CNC(=O)[C@H](CCCCN)NC(=O)[C@H](CC(C)C)NC(=O)[C@@H]1CCCN1C(=O)[C@H](CO)NC(=O)[C@H](Cc1c[nH]cn1)NC(=O)[C@H](Cc1c[nH]c2ccccc12)NC(=O)[C@H](CCCNC(=N)N)NC(=O)[C@H](CC(C)C)NC(=O)[C@H](CCCNC(=N)N)NC(=O)[C@H](Cc1c[nH]c2ccccc12)NC(=O)[C@H](CS)NC(=O)CCCCCNC(=O)CN1CCN(CC(=O)O)CCN(CC(=O)O)CCN(CC(=O)O)CC1)C(=O)O [copper-64 labelled] — tissue uptake (ex vivo biodistribution; C57BL/6J mice bearing B16-F10 tumours, pancreas; intravenous, 1.85 MBq, 0.5 h): 1.6 %ID/g
C#Cc1c(F)ccc2cc(O)cc(-c3ncc4c(N5CC6CCC(C5)N6C(=O)OC(C)OC(=O)C5CCOCC5)nc(OC[C@@]56CCCN5C[C@H](F)C6)nc4c3F)c12 (some centres unmarked) — t1/2 (item: prodrug; mouse whole blood; 1 µM): 5.37 min
O=C1NC2(CC2)COc2ncc(F)cc2[C@H]2COCCN2c2ccn3ncc1c3n2 — organ weight (Sprague-Dawley rat, female, adrenals; oral, 2.5 mg/kg/day, 4 weeks): 0.075 ± 0.01 g
CC[C@H](C)[C@H](NC(=O)[C@H](CCCCN)NC(=O)CNC(=O)[C@H](CC(C)C)NC(=O)[C@H](Cc1ccccc1)NC(=O)[C@H](CCCCN)NC(=O)[C@H](CO)NC(=O)[C@H](Cc1ccccc1)NC(=O)[C@H](Cc1c[nH]c2ccccc12)NC(=O)[C@H](CCC(N)=O)NC(=O)[C@@H](NC(=O)[C@H](Cc1ccccc1)NC(=O)CCCCCNC(=O)CN1CCN(CC(=O)O)CCN(CC(=O)O)CCN(CC(=O)O)CC1)C(C)C)C(=O)N[C@@H](CCC(=O)O)C(=O)N1CCC[C@H]1C(=O)N[C@@H](CC(=O)O)C(=O)N[C@H](C(=O)N[C@@H](CO)C(=O)N[C@@H](CCC(N)=O)C(=O)N[C@H](C(=O)N[C@@H](CCC(N)=O)C(=O)N[C@@H](CC(=O)O)C(=O)N1CCC[C@H]1C(=O)N[C@@H](CC(N)=O)C(=O)N[C@@H](CC(=O)O)C(=O)N[C@@H](CCC(N)=O)C(=O)N[C@@H](Cc1ccc(O)cc1)C(=O)N[C@@H](CCC(=O)O)C(=O)N1CCC[C@H]1C(=O)N[C@@H](Cc1ccccc1)C(=O)O)C(C)C)C(C)C [copper-64 labelled] — tissue uptake (C57BL/6 mice, male, tumour-free, spleen; 1 h): 2.92 ± 0.6 %ID/g
CC(=O)N1c2ccc(-c3ccc(CNC(=O)c4cn5cc(-c6cnc(N)nc6)nc(N6CCOCC6)c5n4)cc3)cc2CC[C@@H]1C — MTD (C57BL/6 mice, non-tumour-bearing): 50 mg/kg/day
CN1Cc2cc(Cl)ccc2-n2c(nnc2C2CCN(c3cccc([18F])n3)CC2)C1 — tissue uptake (C57BL/6 mouse male, small intestine; intravenous, 3.7 MBq, 15 min): 14.4 ± 9.3 %ID/g
N#[11C]c1ccc(-c2csc(NN=C3CCCC3)n2)cc1 — uptake in blood (C57BL/6 mouse, male; intravenous, 3 MBq, 15 min): 5.1 ± 0.4 %ID/g
COc1cnc2cccc(N3CCc4c(cc(Cn5ccnc5)cc4-c4cn(C)nc4C(F)(F)F)C3=O)c2c1 — body weight (BALB/c nude mice, MV4-11 xenograft; intraperitoneal, 50 mg/kg, day 28): 21.6 g and 23.4 g and 22.3 g and 25.4 g and 21.8 g and 23.6 g
C=CC(=O)Nc1cccc(Cn2ncc3cnc(Nc4cnn(CCOC)c4)nc32)c1 — serum HDL (female Sprague-Dawley rat; oral, 180 mg/kg/day, day 28, 28-day subacute toxicity): 0.58 ± 0.13 mM
COc1cc2ncnc(Oc3ccc(Nc4nccc5[nH]cc(-c6ccc(F)cc6)c(=O)c45)cc3F)c2cc1OC — MTD (general toxicity; Sprague-Dawley rat; oral, multiple doses, once daily): 20 mg/kg/day
CN[C@H](CC(C)C)C(=O)N[C@H]1C(=O)N[C@@H](CC(N)=O)C(=O)N[C@H]2CN[C@H]3C(=O)N[C@H](C(=O)N[C@H](C(=O)NCCCNC(=N)N)c4cc(O)cc(O)c4-c4cc3ccc4O)[C@H](O)c3ccc(c(Cl)c3)Oc3cc2cc(c3O[C@@H]2O[C@H](CO)[C@@H](O)[C@H](O)[C@H]2O[C@H]2C[C@](C)(NCc3ccc(-c4ccc(Cl)cc4)cc3)[C@H](O)[C@H](C)O2)Oc2ccc(cc2Cl)[C@H]1O — half-life (mouse; intravenous, 50 mg/kg): 7.1 h
CSCC[C@H](N)C(=O)N[C@@H](C)C(=O)N[C@@H](CCCNC(=N)N)C(=O)N[C@@H](CCCNC(=N)N)C(=O)N[C@@H](CC(=O)O)C(=O)N[C@@H](CCCCN)C(=O)N[C@H](C(=O)N[C@@H](CC(=O)O)C(=O)N[C@@H](Cc1ccccc1)C(=O)N[C@@H](C)C(=O)N[C@@H](CCCNC(=N)N)C(=O)N[C@@H](CCCNC(=N)N)C(=O)N[C@@H](CCCNC(=N)N)C(=O)N[C@@H](CCCNC(=N)N)C(=O)NCCCCCC(=O)NCCCCC(NC(=O)CCCCCNC(=O)[C@H](CCCNC(=N)N)NC(=O)[C@H](CCCNC(=N)N)NC(=O)[C@H](CCCNC(=N)N)NC(=O)[C@H](CCCNC(=N)N)NC(=O)[C@H](C)NC(=O)[C@H](Cc1ccccc1)NC(=O)[C@H](CC(=O)O)NC(=O)[C@@H](NC(=O)[C@H](CCCCN)NC(=O)[C@H](CC(=O)O)NC(=O)[C@H](CCCNC(=N)N)NC(=O)[C@H](CCCNC(=N)N)NC(=O)[C@H](C)NC(=O)[C@@H](N)CCSC)[C@@H](C)O)C(=O)NCCCCC(NC(=O)C(CCCCNC(=O)CCCCCNC(=O)[C@H](CCCNC(=N)N)NC(=O)[C@H](CCCNC(=N)N)NC(=O)[C@H](CCCNC(=N)N)NC(=O)[C@H](CCCNC(=N)N)NC(=O)[C@H](C)NC(=O)[C@H](Cc1ccccc1)NC(=O)[C@H](CC(=O)O)NC(=O)[C@@H](NC(=O)[C@H](CCCCN)NC(=O)[C@H](CC(=O)O)NC(=O)[C@H](CCCNC(=N)N)NC(=O)[C@H](CCCNC(=N)N)NC(=O)[C@H](C)NC(=O)[C@@H](N)CCSC)[C@@H](C)O)NC(=O)CCCCCNC(=O)[C@H](CCCNC(=N)N)NC(=O)[C@H](CCCNC(=N)N)NC(=O)[C@H](CCCNC(=N)N)NC(=O)[C@H](CCCNC(=N)N)NC(=O)[C@H](C)NC(=O)[C@H](Cc1ccccc1)NC(=O)[C@H](CC(=O)O)NC(=O)[C@@H](NC(=O)[C@H](CCCCN)NC(=O)[C@H](CC(=O)O)NC(=O)[C@H](CCCNC(=N)N)NC(=O)[C@H](CCCNC(=N)N)NC(=O)[C@H](C)NC(=O)[C@@H](N)CCSC)[C@@H](C)O)C(N)=O)[C@@H](C)O (some centres unmarked) — mean tissue distribution (C57BL/6 mouse female, colon; dose not given, 6 h; reference: total): 3.08%
CC[C@H](C)[C@H](NC(=O)[C@H](C)NC(=O)[C@H](CCCCN)NC(=O)[C@H](CC(C)C)NC(=O)[C@@H](N)Cc1ccccc1)C(=O)N[C@@H](CCCCN)C(=O)N[C@@H](CCCCN)C(=O)N[C@@H](Cc1ccccc1)C(=O)NCC(=O)N[C@@H](CCCCN)C(=O)N[C@@H](CCC(=O)O)C(=O)N[C@@H](Cc1ccccc1)C(=O)N[C@@H](CCCCN)C(=O)N[C@@H](CCCCN)C(=O)N[C@H](C(=O)NCC(=O)N[C@@H](C)C(=O)N[C@@H](CCCCN)C(=O)N[C@@H](CC(C)C)C(=O)N[C@@H](CCCCN)C(=O)O)[C@@H](C)CC — hemolysis (human red blood cells; 16 mg/L, 1 h, mean of replicates): 0.204%
N=C(N)NCCC[C@@H](NC(=O)[C@H](N)Cc1c[nH]c2ccccc12)C(=O)N[C@H](CCCCN)C(=O)N[C@H](Cc1c[nH]c2ccccc12)C(=O)N[C@H](CCCNC(=N)N)C(=O)N[C@H](CCCCN)C(=O)N[C@H](Cc1c[nH]c2ccccc12)C(=O)N[C@H](CCCNC(=N)N)C(=O)N[C@H](CCCCN)C(=O)N[C@H](Cc1c[nH]c2ccccc12)C(=O)N[C@H](CCCNC(=N)N)C(=O)N[C@H](CCCCN)C(N)=O — survival (mouse; intraperitoneal, 30 mg/kg single dose, day 3): 100%

A few entries again:
CC(=O)N1c2ccc(-c3ccc(CNC(=O)c4cn5cc(-c6cnc(N)nc6)nc(N6CCOCC6)c5n4)cc3)cc2CC[C@@H]1C — MTD (C57BL/6 mice, non-tumour-bearing): 50 mg/kg/day
